Measured values pooled from the literature.
Parts stem from different laboratories: compare values within a part only. Substitutions count along the parent as printed.

Series 1 — target: CCND3, cyclin fold, Cln2 fusion (human); method: yeast growth competition, sequencing; medium: yeast; setting: strong parent motif; relative to: not given; reading: higher = stronger binding
Starting sequence: INSM1 docking peptide (human); PKAIRKLHFEDEV
Under “normalised enrichment score”, `E10F` is recorded as 0.619.
Under “normalised enrichment score”, `A3M` is recorded as 0.415.
`L7I` — result for “normalised enrichment score”: 1.1.
For `K6Y`, “normalised enrichment score” read 0.669.
Under “normalised enrichment score”, `K6F` is recorded as 0.461.
For `F9A`, “normalised enrichment score” read -0.437.
For `L7Y`, “normalised enrichment score” read 0.0456.
For `E12S`, “normalised enrichment score” read 0.98.
`A3Y` — result for “normalised enrichment score”: 0.0844.
For `E12G`, “normalised enrichment score” read 0.61.
Under “normalised enrichment score”, `K6V` is recorded as 1.04.
Under “normalised enrichment score”, `R5M` is recorded as 0.94.
Under “normalised enrichment score”, `K2Q` is recorded as 0.757.
Under “normalised enrichment score”, `K6I` is recorded as 0.665.

Series 2 — method: protein binding microarray; form: double-stranded DNA, one strand shown; medium: in vitro; tested at: not given; relative to: not given; reading: higher = stronger binding
Target: Histone acetyltransferase KAT6A, winged helix 2, GST fusion (KAT6A, Homo sapiens, UniProt Q92794, residues 85-181)
Setting: 8-mer, flanks averaged, mean of 2 arrays, mostly near background
Construct (chain): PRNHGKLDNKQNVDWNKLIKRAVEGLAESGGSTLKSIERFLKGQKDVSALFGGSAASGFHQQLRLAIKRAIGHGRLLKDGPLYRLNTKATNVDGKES
`AATTCCAA` gave an E-score of 0.0443.
For `TGAAGCAA`, the E-score was 0.0379.
With `ACCGGCGT` the E-score was -0.104.
The E-score of `CAAAATTA` is reported as 0.218.
`TATAGCCA` has an E-score of -0.0691.
`CAGCAGCC` has an E-score of -0.0499.
The E-score of `AAGTACTC` is reported as -0.00776.
The E-score of `AAGTGTTC` is reported as -0.148.
With `CTATATGC` the E-score was -0.0346.
For `ACGTTGGA`, the E-score was -0.122.
`CGCCACAA` has an E-score of -0.00524.
The E-score of `GAAAAGGC` is reported as 0.101.
`ATGCCTAG` gave an E-score of -0.163.
`ATGGAAGA` gave an E-score of -0.00391.
With `AGGATTAT` the E-score was -0.0437.
The E-score of `TGGGACAA` is reported as -0.0523.
`GTGTGCTA` has an E-score of 0.0359.
For `AAAGTCAC`, the E-score was -0.139.
For `CCGTATGC`, the E-score was 0.118.
`AAAGTCGT` has an E-score of -0.168.
For `TCATCCCA`, the E-score was -0.0329.
The E-score of `GGCCGTCA` is reported as 0.0501.
The E-score of `GGTGAAAA` is reported as 0.108.
`TACCGTCA` gave an E-score of 0.0277.
The E-score of `CACAACTA` is reported as -0.0578.

Series 3 — method: protein-binding microarray; form: double-stranded DNA, one strand shown; medium: in vitro; tested at: 940 nM top; setting: 60-bp whole probe; together with: salmon DNA 0.4 mg/ml; relative to: random background probes; reading: higher = stronger binding; constant ends, left off below: GCCTAGCAC … GTCTTGATTCGCTTGACGCTGCTG
Target: Interferon regulatory factor 5, full length, phosphomimetic (IRF5, Homo sapiens, UniProt Q13568-2, residues 1-514, S451D/S453D/S456D/S462D)
For `CTAGATCTCAGTCTCGATTAGTGCTAG`, “fitted relative affinity” read 3.14 z-score.
`TTAGGTTTCGGACAGGGTTAGTGCTAG` — result for “fitted relative affinity”: 6.88 z-score.
Under “fitted relative affinity”, `TTAGAACTTGGGTATCGATTAGTGCTA` is recorded as 3.22 z-score.
For `TTAGGTGTCGGGACTGGGTTAGTGCTA`, “fitted relative affinity” read -0.204 z-score.
`GACGAACTGAGTTCCGAGACGTGCTAG` — result for “fitted relative affinity”: -0.162 z-score.
`ATAGGACTGGGACTGGGTTAGTGCTAG`: “fitted relative affinity” -0.372 z-score.
`TCACATATCGGGGTGCGCACTGTGCTA` — result for “fitted relative affinity”: 0.701 z-score.
`GACGATTTCAGTTCCGAGCCGTGCTAG`: “fitted relative affinity” 0.442 z-score.
`GCCGGTTTCGGACTGGGGACGTGCTAG` — result for “fitted relative affinity”: 7.15 z-score.
`TTAGAACTGGGGTATCAATTAGTGCTA`: “fitted relative affinity” 0.685 z-score.
`AGGGTCTTCAGGTTCTCCCCGTGCTAG` — result for “fitted relative affinity”: -0.0496 z-score.
Under “fitted relative affinity”, `TTAGGTCTCGGTTTCGGATAGTGCTAG` is recorded as 6.68 z-score.
`TTAGGTCTCCTTCTCCATTAGTGCTAG`: “fitted relative affinity” 0.565 z-score.
For `GAAGCCAGCTCTTTCGTTACGTGCTAG`, “fitted relative affinity” read 0.117 z-score.
Under “fitted relative affinity”, `CTGCAGCCCACTCCTGAACAGTGCTAG` is recorded as -0.324 z-score.

Series 4 — method: universal PBM; form: double-stranded DNA, one strand shown; medium: in vitro; tested at: not given; reading: higher = stronger binding
Target: Sal-like protein 4, full length isoform B (SALL4, Homo sapiens, UniProt Q9UJQ4-2, residues 1-616)
Setting: 8-mer, flanks averaged, mean of replicates
`CCTCATGA` has an E-score of -0.00974.
`CTCTAAAG` gave an E-score of -0.122.
The E-score of `GTCAGCTA` is reported as -0.133.
`AGACTCGA` gave an E-score of -0.0136.
`TTGGGAAA` has an E-score of 0.142.
`ACACAGGT` has an E-score of -0.0564.
With `AGTGATCG` the E-score was -0.0823.
`CAATTCGG` gave an E-score of -0.0904.
The E-score of `CCCAGGCA` is reported as -0.191.
For `GTCGCGGA`, the E-score was -0.382.
`ATTCGGTA` has an E-score of 0.142.
`CTCCACAC` gave an E-score of -0.0722.
`GCCGCTCA` has an E-score of -0.248.
For `AGTGATGA`, the E-score was 0.0744.
`AGAAGCCT` gave an E-score of 0.0476.
With `ATAAGGTG` the E-score was 0.172.
`CATTCATA` gave an E-score of 0.393.
`ATCTGTAC` has an E-score of 0.201.
With `ATGTGTGG` the E-score was -0.0752.
For `GGCCACGA`, the E-score was -0.194.
With `AAGTTTTC` the E-score was 0.219.
With `AGCATAGA` the E-score was 0.0799.
For `AGCAGCTC`, the E-score was -0.29.
The E-score of `ACGGTATC` is reported as -0.011.
The E-score of `CAGGCTTC` is reported as -0.204.

Series 5 — method: RNA Bind-n-Seq; form: RNA; medium: in vitro; tested at: 365 nM; relative to: no-protein control; reading: higher = stronger binding
Target: RNA binding protein fox-1 homolog 2, RRM domain, GST-SBP tag (RBFOX2, Homo sapiens, UniProt O43251-10, residues 100-194)
Setting: natural RNA segment, single round, ends assumed
Residues (chain): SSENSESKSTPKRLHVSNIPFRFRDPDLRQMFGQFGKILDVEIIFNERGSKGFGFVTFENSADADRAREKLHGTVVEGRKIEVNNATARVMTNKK
`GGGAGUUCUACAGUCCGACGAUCUGCUCCUUAAAAAUGAAACAGGAGAAAGCCUGGCAUUGUAUACCUGUUUUUGUUGCUCAGUAAUUCAGGUGGAAAUAUAUAACGCAAGUGGGUAGAGCGUCUGCCAGACUUGGAAUUCUCGGGUGCCAA`: “RBNS enrichment (R)” 0.59.
For `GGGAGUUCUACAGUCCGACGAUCGAGUCGUAUGACAGCCACAAGGCUGGAAAUCACAAUGCACUUGCUGCCGUUCUGACCUGGGACUGGGCCACUUCUUCAGUUCCUAAUGCCAGGCCUGGCCUCCUGAUGCCUGGAAUUCUCGGGUGCCAA`, “RBNS enrichment (R)” read 0.309.
`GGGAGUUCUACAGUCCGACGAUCUGUCUUUUUAAUAUUCUUGUGAUGUUUUCAGAGCCGCUGUAGGUCUCUUCUUGCAUGUCCACAGUAAUGUAUUUGUGGUUUUUAUUUUGAACGCUUGCUUUUAGAGAGAAUGGAAUUCUCGGGUGCCAA` — result for “RBNS enrichment (R)”: 123.
`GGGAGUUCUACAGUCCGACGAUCGCCCUCAGUGAACUACCCAGCAGGGCUGAUCGCAUUGAGGUCAUUCAGAACUUGUGGCGUAAGACAAGCCAUUUUCUGGUAUUGGUGGAGAACGGAACCAAAGCUGGGCAUGGAAUUCUCGGGUGCCAA` — result for “RBNS enrichment (R)”: 0.552.
Under “RBNS enrichment (R)”, `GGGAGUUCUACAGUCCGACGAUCUUACUUUUCAUUGAAUUGAAAUUUAUUUUGGAUGAAUGACUGGCAUGAACACGUCUUUGAAGUUGUGGCUGAGAAGAUGAGAGGAAUAUUUAAAUAACAUCAACAGAACAUGGAAUUCUCGGGUGCCAA` is recorded as 6.5.
`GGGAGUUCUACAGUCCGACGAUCUCCUAGCAUUUCUAUAUUAUCUGUCCAUUCUGAGGAACCAGUGAAUGUCCUAUAAAUGCACCUCCUGUCAAAACCAUGCCUGAGAGGUCCCGGCUGGGAGUGACAGGGUGUGGAAUUCUCGGGUGCCAA`: “RBNS enrichment (R)” 2.26.
`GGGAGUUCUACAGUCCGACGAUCGACAUGGUGUUUGCCCAUAUCACUUCCAUUUUGUAUACACUCUGGAUUUGUGUAGGCUGUAUUCCAGUUGGCUUUUUAGUAAUAGAAAUCCCUCAUAUGAUGUAUCAGAUUGGAAUUCUCGGGUGCCAA` — result for “RBNS enrichment (R)”: 0.274.
`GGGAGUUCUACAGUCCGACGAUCUGGCUUGUUUUUGGAAAGAAAUUCUGAAGAGAGUGGAGGAGAGGAGAAAUGUCCUCAUAUUUGAGGACCAUGAAACAUUGUAGGUAUAUAUGGGGCUUUAGCAAGUUUGAUGGAAUUCUCGGGUGCCAA`: “RBNS enrichment (R)” 0.835.
Under “RBNS enrichment (R)”, `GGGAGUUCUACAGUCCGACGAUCUCCACUUAUAACCAUUGUAUGCUCCUUCUAGUGUUAUCAUGCACAAGAAAAGUGCCAGUUUUACCCAUGCCAUAUAAUUCAGCUCUUUUGAGUUAUGUGGGGCCAGCAGAUGGAAUUCUCGGGUGCCAA` is recorded as 0.93.
For `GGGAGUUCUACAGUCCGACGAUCGGGGAAGCGAAUGUUUCUGAACAUAAGGCUCUAAGACUCGUGUGAGGCUGAGAGUGAAUGGCAGUGGAGAGUGGGCUGAGAGAGGGCAGCUGGCACAUCCAGGGUCAUGGUGGAAUUCUCGGGUGCCAA`, “RBNS enrichment (R)” read 1.13.
For `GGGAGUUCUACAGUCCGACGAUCGAAUGACGAUUUUGAUUAGGCCACGUAGGGUGAAAACCGCAGAAAAAUGAUUGGAAAUGAACUCUUGCCCUGGAAUAACCUUGACAAUUCAAACCGCGAUGUUUACUUUUUGGAAUUCUCGGGUGCCAA`, “RBNS enrichment (R)” read 0.611.
For `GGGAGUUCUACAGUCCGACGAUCGACUGGCCUUCCCGGCUCAGCCAGUGAGGCUCAGAAGGGACACAAAGAGGGAUGGAAGAAAAGAACAAAGAGAAACUGUUCCUCCCACCCCCUUCCCUGAUGCCAGGGGCUGGAAUUCUCGGGUGCCAA`, “RBNS enrichment (R)” read 0.288.

A few entries again (series 4):
`AGAAGCCT` gave an E-score of 0.0476.
With `ATGTGTGG` the E-score was -0.0752.
With `ATAAGGTG` the E-score was 0.172.
For `AGCAGCTC`, the E-score was -0.29.
The E-score of `GTCAGCTA` is reported as -0.133.
`AGACTCGA` gave an E-score of -0.0136.
`CTCTAAAG` gave an E-score of -0.122.
The E-score of `CAGGCTTC` is reported as -0.204.
`ATCTGTAC` has an E-score of 0.201.
`CATTCATA` gave an E-score of 0.393.
For `GGCCACGA`, the E-score was -0.194.
For `GTCGCGGA`, the E-score was -0.382.
